Experimental data of several laboratories.
Every numbered part comes from another study and shows a few of its results, in no order. Substitutions count along the parent as printed.

Study 1 — technique: RNA Bind-n-Seq; form: RNA; medium: in vitro; tested at: 365 nM; reference: no-protein control; direction: higher = stronger binding; endpoint: RBNS enrichment (R)
Target: RNA binding protein fox-1 homolog 2, RRM domain, GST-SBP tag (RBFOX2, Homo sapiens, UniProt O43251-10, residues 100-194)
Notes: natural RNA segment, single round, ends assumed
Target sequence (chain): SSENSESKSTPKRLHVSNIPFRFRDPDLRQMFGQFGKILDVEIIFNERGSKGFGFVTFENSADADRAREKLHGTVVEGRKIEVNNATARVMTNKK
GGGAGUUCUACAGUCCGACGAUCAGAUAUGCUAUUUCAUAACUUAUGUAGAAUGAUUUUUAUCUAUAUACUUUGUCCAUAAAAUUAUAAUUGUUUAUGUAAUUUUAUUGUUUCUUAUGGAAACAAUUGGAAAAUGGAAUUCUCGGGUGCCAA: 0.796
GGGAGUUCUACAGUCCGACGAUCUGCACGUGGGUCCUUGGAGAUGCGUGACCCAUGUCUCUGGCUGGUAAUGUUGCCUGCAGCCCACAUAAAGUGCAGGCAGGAUCAGAAGUAGCCAAGUAGGUUCACUGAGGUGGAAUUCUCGGGUGCCAA: 1.9
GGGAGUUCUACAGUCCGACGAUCAUUCCUGCUUCAUUUCCUUUUCUCAAGGGCCGCUUCCCCGGACCCUCCUGUCAUAGGCCCCACUUGGUGCUAUUUGUGGUGCUGGCUCAGGCGUGGGGCUGCCAGGCUCGUGGAAUUCUCGGGUGCCAA: 1.74
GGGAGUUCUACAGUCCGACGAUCGCACUAGGUGUUUGGAGGUGAGCUAGGAAGACCAGUGGUAUGUUGAGCCCCUUACAGAUAAGCACCGGUGUCUCUUUGGUGCACCUUGCCUUCAGAUGCUCCUGGUGGUCUGGAAUUCUCGGGUGCCAA: 1.32
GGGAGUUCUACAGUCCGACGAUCUUCAAAUGUCACCAAUAAAAGUUUUGGCAGGAAGCUUGUUGCGGCAUUGAUCUAACCUUUUUCCCCCCCAUUUCAGUUGCAGUUUUUGUAGAAUGGCUUUUUCUUUUUCCUGGAAUUCUCGGGUGCCAA: 1.53
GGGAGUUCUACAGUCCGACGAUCUGAGUGUGAUCAAAUCUAGUCUCACUCCCACUUUUUAGUCUCACUCCUACUUUUGUCCACCACCCCUGCCUCCUGGAUCUUCUCCCACUUUUUUUUUCAGCUUUAGGACCUGGAAUUCUCGGGUGCCAA: 1.06
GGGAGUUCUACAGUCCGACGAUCAAAAUUCACUGGGGACUUUUCCCACCACACAUGGAAAUCUGUCCACUCGGAAUACCUCUGUUUUCCAUUUCAAAUUGUAGGGGGAGGGGAUGGAACACUUCCAGUGAUGGUGGAAUUCUCGGGUGCCAA: 0.47
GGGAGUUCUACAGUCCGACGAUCUUUGGAAGCUCAGUUCUUGAGUUGUCAGAGGGCCUCAUUGCCGUCCUCCUCUGAGAGCAGUGAUGCAGGCCAGGAGACAUCAUUUGAGAAUGCUGAUGCUUUUGUAAGGCUGGAAUUCUCGGGUGCCAA: 0.262
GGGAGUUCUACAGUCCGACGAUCGUUCUUCAUUCUGUGCUCAGGAUUGAAAUGCUGCGUAGACGUUGUGUUGUUAGUGCUGGGCACGGAUUCUGGGACGGUGAGCUGUUGAUUUCCUAACAGAAAGAUAUUUUUGGAAUUCUCGGGUGCCAA: 0.239
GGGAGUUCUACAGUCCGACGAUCCAUCACACUGAACAGGAUGUGGCCUGCUGACAGUGAGUAGCUGAAGUGCCUGUUUGGUAAGUAGGUUAGCAUUCAUCAUGAACUCUGAAAGCCAUUUCAGAGUUUGGCUGUGGAAUUCUCGGGUGCCAA: 0.396
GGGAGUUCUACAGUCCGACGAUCUUCAAACUACCAUAAAGGGAUUUUAACUGUAUUUUUAUUCUUAGAAACAAUACACCUUUAAACAGAUGUCAAGACCAAAGAUGAUGUAUAAUAAACAGCCGGUGGUUAUGUGGAAUUCUCGGGUGCCAA: 0.441
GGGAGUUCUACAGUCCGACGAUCCACAACUGUAUGUGACCAAAAGACACAUUUUGUGUCACUCCUGCUUUCCUGUCAGCUGUUGACACCUUGGUAGGAGCUCUCAUUAUUACAUUCUCCAUUCUCCAUUUCCCUGGAAUUCUCGGGUGCCAA: 0.572

Study 2 — target: UBE2B UBC core domain (UniProt P63146); technique: yeast two-hybrid; medium: yeast; notes: mostly zero background; reference: not given; direction: higher = stronger interaction; endpoint: lacZ reporter activity
UniProt P63146, sequence (whole entry, looked up): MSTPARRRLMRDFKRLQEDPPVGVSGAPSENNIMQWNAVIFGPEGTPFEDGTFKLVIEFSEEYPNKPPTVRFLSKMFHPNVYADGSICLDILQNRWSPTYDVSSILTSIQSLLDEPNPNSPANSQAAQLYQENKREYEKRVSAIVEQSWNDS
B1: ANAPC11 RING domain (UniProt Q9NYG5); chain GICRMAFNGCCPDCKVPGDDCPLVWGQCSHCFHMHCILKWLHAQQVQQHCPMCRQEWKFKE
B2: RNF2 RING domain (UniProt Q99496); chain SPRSLHSELMCPICLDMLKNTMTTKECLHRFCADCIITALRSGNKECPTCRKKLVSKRSLR
B3: TRIM31 RING domain (UniProt Q9BZY9); chain FVNKLQEEVICPICLDILQKPVTIDCGHNFCLKCITQIGETSCGFFKCPLCKTSVRKNAIRF
B4: TRIM37 RING domain (UniProt O94972); chain SVESIAEVFRCFICMEKLRDARLCPHCSKLCCFSCIRRWLTEQRAQCPHCRAPLQLRELVN
B5: MYCBP2 RING domain (UniProt O75592); chain TSLKQDADDMCMICFTEALSAAPAIQLDCSHIFHLQCCRRVLENRWLGPRITFGFISCPICKNKINHIVLKD
B6: RNF31 RING domain (UniProt Q96EP0); chain AFLRRLLAQECAVCGWALPHNRMQALTSCECTICPDCFRQHFTIALKEKHITDMVCPACGRPDLTDDTQLL
B7: TRIM60 RING domain (UniProt Q495X7); chain ALVNLQEESSCPICLEYLKDPVTINCGHNFCRSCLSVSWKDLDDTFPCPVCRFCFPYKSFRR
B8: MKRN2 RING domain (UniProt Q9H000); chain FAFQASQDKVCSICMEVILEKASASERRFGILSNCNHTYCLSCIRQWRCAKQFENPIIKSCPECRVISEFVIPSV
B9: DEF8 RING domain (UniProt Q6ZN54); chain AGRLGCSLTEIHTLFAKHIKLDCERCQAKGFVCELCREGDVLFPFDSHTSVCADCSAVFHRDCYYDNSTTCPKCARLSLRK
B10: RNF152 RING domain (UniProt Q8N8N0); chain ETLSQDSLLECQICFNYYSPRRRPKLLDCKHTCCSVCLQQMRTSQKDVRCPWCRGVTKLPPGFS
B11: RNF183 RING domain (UniProt Q96D59); chain EQQGRELEAECPVCWNPFNNTFHTPKMLDCCHSFCVECLAHLSLVTPARRRLLCPLCRQPTVLASGQP
QVQSRTKIEECVVCSDKKAAVLFQPCGHMCACENCANLMKKCVQCRAVVERRVPFI (MIB1 RING domain (UniProt Q86YT6)): 0
B1 (ANAPC11 RING domain): 0
B2 (RNF2 RING domain): 0
B3 (TRIM31 RING domain): 0
LDAASGHPLVCPLCHGQYERPCLLDCFHDFCTGCLRGRATDGRLSCPLCQHQTLVKGPSG (Rnf207 RING domain (UniProt Q3V3A7)): 0
B4 (TRIM37 RING domain): 0
B5 (MYCBP2 RING domain): 0
B6 (RNF31 RING domain): 0
RYRQMEERITCPICIDSHIRLVFQCGHGACAPCGSALSACPICRQPIRDRIQIF (MIB2 RING domain (UniProt Q96AX9)): 0
KPDKMEETLTCIICQDLLHDCVSLQPCMHTFCAACYSGWMERSSLCPTCRCPVERICKNH (CHFR RING domain (UniProt Q96EP1)): 0
B7 (TRIM60 RING domain): 0
B8 (MKRN2 RING domain): 0
B9 (DEF8 RING domain): 0
B10 (RNF152 RING domain): 0
B11 (RNF183 RING domain): 0

Study 3 — technique: DHFR PCA, deep sequencing; medium: yeast; added: (+)-ABA 0 µM; reference: wild-type fitted maximum; direction: higher = stronger binding; endpoint: relative binding score
Target: ABI1, truncated, D143A, DHFR fusion (Arabidopsis thaliana)
Notes: methotrexate growth selection, single substitutions
Starting sequence: PYL1, truncated, DHFR fusion (Arabidopsis thaliana); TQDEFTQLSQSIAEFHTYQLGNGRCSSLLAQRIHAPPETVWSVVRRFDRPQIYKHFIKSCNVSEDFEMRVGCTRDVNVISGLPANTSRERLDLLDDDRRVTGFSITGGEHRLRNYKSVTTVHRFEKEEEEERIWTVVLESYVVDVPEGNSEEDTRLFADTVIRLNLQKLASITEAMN
I133S: 28.6%
L28T: 5.62%
V100R: -4.25%
M176Y: 4.86%
K116T: 13.3%
N77F: 14.2%
T154H: -6.2%
E128N: 34.3%
K54T: -4.64%
M68Q: 3.88%
V121E: 3.36%
G81Q: 8.37%
P146L: 26%
R123N: 7.82%
G102L: -2.96%
E109P: -0.0658%
G148W: 0.723%
S104G: -0.0252%
A35V: 0.503%
E127Q: 39.5%
Q19V: 16.6%
P36W: 3.82%
A175V: 5.48%
N22D: 38.8%
L20P: 39.9%

Study 4 — target: CCNE2, cyclin fold, Cln2 fusion (human); technique: yeast growth competition, sequencing; medium: yeast; notes: weak parent motif; reference: not given; direction: higher = stronger binding; endpoint: normalised enrichment score
Starting sequence: EXO1 docking peptide (human); KPECGRVQRAIFQ; partner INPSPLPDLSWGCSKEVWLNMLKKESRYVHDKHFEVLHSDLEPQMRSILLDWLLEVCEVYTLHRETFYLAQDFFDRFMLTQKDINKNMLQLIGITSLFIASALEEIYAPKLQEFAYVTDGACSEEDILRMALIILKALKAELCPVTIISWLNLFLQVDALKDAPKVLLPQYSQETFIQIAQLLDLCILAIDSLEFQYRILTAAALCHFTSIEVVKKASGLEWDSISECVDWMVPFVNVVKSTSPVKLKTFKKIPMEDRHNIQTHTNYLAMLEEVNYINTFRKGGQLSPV
KPECGRVQRAIAQ [F12A]: 0.228
KPEAGRVQRAIFQ [C4A]: 0.259
KPECARVQRAIFQ [G5A]: 0.208
KAECGRVQRAIFQ [P2A]: 0.0484
KPECGRVQRAAFQ [I11A]: 0.277
APECGRVQRAIFQ [K1A]: 0.226

Excerpt of the above (study 3):
K54T: -4.64%
M68Q: 3.88%
V121E: 3.36%
G81Q: 8.37%
P146L: 26%
R123N: 7.82%
G102L: -2.96%
E109P: -0.0658%
G148W: 0.723%
